Results pooled from the literature.
± marks the error that the study gave.

Substance | organism | assay | test system | conditions | MIC
Cc1cccc(C(=O)N/N=C/c2ccccc2Cl)c1 | Aspergillus niger | microbial growth, broth dilution |  | 7 days | 30.9 µM
CC(C)C[C@H](NC(=O)[C@H](C)NC(=O)[C@H](CC(C)C)NC(=O)[C@@H](NC(=O)[C@@H](N)CO)[C@@H](C)O)C(=O)N[C@H](C(=O)N[C@@H](CC(C)C)C(=O)N[C@@H](CCCNC(=N)N)C(=O)N[C@@H](CC(C)C)C(=O)N[C@@H](CCCNC(=N)N)C(=O)NCC(=O)NCC(=O)O)C(C)C | Mycolicibacterium smegmatis |  | mc2 155 | 37 °C, ≥90% viability decrease | > 400 µM
CC[C@H](C)[C@H](NC(=O)[C@H](CCCNC(=N)N)NC(=O)[C@H](CCCCN)NC(=O)[C@H](CC(C)C)NC(=O)[C@H](CC(C)C)NC(=O)CNC(=O)[C@H](Cc1c[nH]cn1)NC(=O)CNC(=O)CN)C(=O)N[C@@H](CCCCN)C(=O)N[C@H](C(=O)N[C@@H](CC(C)C)C(=O)N[C@@H](CC(C)C)C(N)=O)[C@@H](C)O | Staphylococcus epidermidis |  | ATCC 12228 | 18 to 20 h | 8 µM
COc1ccc(OCc2n(CC(=O)OC3CC(C)CCC3C(C)C)c3ccccc3[n+]2C)cc1 (centres unmarked) | Mycolicibacterium smegmatis | microbial growth |  |  | 5 µM
Cc1ccc(C(=O)N/N=C/c2ccccc2)cc1 | Staphylococcus aureus, Bacillus subtilis, Escherichia coli | bacterial growth |  | 24 h | 52.5 µM
Cc1ccc(OCc2n(CC(=O)OC3CC(C)CCC3C(C)C)c3ccccc3[n+]2C)cc1 (centres unmarked) | Mycobacteroides abscessus | microbial growth |  |  | 25.6 µM
COC(=O)[C@H](C)NC(=O)c1ccc(NC(=O)c2[nH]c(C)c(Cl)c2Cl)c(OCCN)c1 | Enterococcus faecalis | microbial growth, broth dilution | ATCC29212 |  | > 25 µM
O=C(/C=C/c1ccccc1)N/N=C/c1ccccc1Cl | Aspergillus niger | microbial growth, broth dilution |  | 7 days | 17.4 µM
CC(C)[C@H](NC(=O)[C@H](CO)NC(=O)[C@H](CCCNC(=N)N)NC(=O)[C@H](CCCNC(=N)N)NC(=O)[C@H](CCCNC(=N)N)NC(=O)[C@H](CCCNC(=N)N)NC(=O)CN)C(=O)N[C@@H](CCC(N)=O)C(=O)N[C@@H](Cc1c[nH]c2ccccc12)C(=O)N[C@@H](CS)C(=O)N[C@@H](C)C(=O)O | Streptococcus mutans | broth microdilution | UA159 | 24 h, planktonic anaerobic | 37.3 ± 13.1 µg/mL
CC[C@H](C)[C@H](NC(=O)[C@@H]1CCCN1C(=O)[C@H](CCCCN)NC(=O)[C@@H]1CCCN1C(=O)[C@@H]1CCCN1C(=O)[C@@H](NC(=O)[C@@H]1CCCN1C(=O)[C@H](CCCNC(=N)N)NC(=O)[C@@H]1CCCN1C(=O)[C@H](CCCCN)NC(=O)[C@H](Cc1ccc(O)cc1)NC(=O)[C@H](CO)NC(=O)CNC(=O)[C@H](CCCCN)NC(=O)[C@H](CC(=O)O)NC(=O)[C@@H](N)C(C)C)[C@@H](C)O)C(=O)N[C@@H](Cc1ccc(O)cc1)C(=O)N[C@@H](CC(N)=O)C(=O)N[C@@H](CCCNC(=N)N)C(=O)N[C@@H](CC(N)=O)C(=O)O | Salmonella enterica |  | serovar Tennessee | 18 h, 37 °C, 12.5% Mueller-Hinton broth | 0.3 ± 0.07 µM
CC(C)C[C@H](NC(=O)[C@H](Cc1ccccc1)NC(=O)[C@H](CCCNC(=N)N)NC(=O)[C@H](CCCCN)NC(=O)[C@H](Cc1c[nH]c2ccccc12)NC(=O)[C@@H](N)CCCNC(=N)N)C(=O)N[C@@H](CCCNC(=N)N)C(=O)N[C@@H](CC(N)=O)C(=O)N[C@@H](Cc1c[nH]c2ccccc12)C(=O)N[C@H](C(N)=O)C(C)C | Staphylococcus epidermidis | broth microdilution | 1457, Mueller-Hinton broth | overnight, 37 °C | > 32 µM
CCCCCCCCCCCCCC(=O)N/N=C/c1ccccc1Cl | Staphylococcus aureus, Bacillus subtilis, Escherichia coli | bacterial growth |  | 24 h | 33.9 µM
CN[C@H](CC(C)C)C(=O)N[C@H]1C(=O)N[C@@H](CC(N)=O)C(=O)N[C@H]2C(=O)N[C@H]3C(=O)N[C@H](C(=O)N[C@H](C(=O)O)c4cc(O)cc(O)c4-c4cc3ccc4O)[C@H](O)c3ccc(c(Cl)c3)Oc3cc2cc(c3O[C@@H]2O[C@H](CO)[C@@H](O)[C@H](O)[C@H]2O[C@H]2C[C@](C)(N)[C@H](O)[C@H](C)O2)Oc2ccc(cc2Cl)[C@H]1O | Enterococcus faecalis |  | ATCC 51575 |  | > 50 µg/mL
Cc1cccc(C(=O)N/N=C/c2ccccc2)c1 | Staphylococcus aureus, Bacillus subtilis, Escherichia coli | bacterial growth |  | 24 h | 52.5 µM
CC[C@H](C)[C@H](NC(=O)[C@@H]1CCCN1C(=O)[C@H](CCCNC(=N)N)NC(=O)[C@@H]1CCCN1C(=O)[C@@H]1CCCN1C(=O)[C@@H](NC(=O)[C@@H]1CCCN1C(=O)[C@H](CCCNC(=N)N)NC(=O)[C@@H]1CCCN1C(=O)[C@H](CC(C)C)NC(=O)[C@H](Cc1ccc(O)cc1)NC(=O)[C@H](CO)NC(=O)CNC(=O)[C@H](CCCCN)NC(=O)[C@H](CC(=O)O)NC(=O)[C@@H](N)C(C)C)[C@@H](C)O)C(=O)N[C@@H](Cc1ccc(O)cc1)C(=O)N[C@@H](CC(N)=O)C(=O)N[C@@H](CCCNC(=N)N)C(=O)N[C@@H](CC(N)=O)C(=O)O | Salmonella enterica |  | serovar Tennessee | 18 h, 37 °C, 12.5% Mueller-Hinton broth | > 0.6 µM
O=C(NCc1ccc2c(c1)OCO2)c1ncc(Br)cc1F | Nakaseomyces glabratus | microbial growth | ATCC2001 | 72 h | 100 µM
LSTFFRLFNGRRRRSVQWCA | Streptococcus mutans | broth microdilution | peptide, UA159 | planktonic, anaerobic | 10.7 ± 4 µg/mL
Cc1ccc(/N=N/C(C=O)=C(/O)c2cc3ccccc3o2)cc1 | Bacillus cereus | microbial growth, broth dilution | UW85 | 18 h | 256 µg/mL
O=C(/C=C/c1ccccc1)N/N=C/c1ccccc1 | Aspergillus niger | microbial growth, broth dilution |  | 7 days | 25.1 µM
CC[C@H](C)[C@H](NC(=O)CNC(=O)[C@H](CCCNC(=N)N)NC(=O)[C@H](Cc1ccccc1)NC(=O)[C@@H](NC(=O)[C@H](Cc1c[nH]cn1)NC(=O)[C@H](Cc1c[nH]cn1)NC(=O)[C@H](Cc1ccccc1)NC(=O)[C@@H](N)Cc1ccccc1)[C@@H](C)CC)C(=O)N[C@H](C(=O)N[C@@H](Cc1c[nH]cn1)C(=O)N[C@H](C(=O)NCC(=O)N[C@@H](CCCCN)C(=O)N[C@H](C(=O)N[C@@H](CCCCN)C(=O)N[C@@H](Cc1c[nH]cn1)C(=O)N[C@@H](CCCNC(=N)N)C(=O)N[C@@H](CC(C)C)C(=O)N[C@H](C(=O)N[C@H](C(=O)NCC(N)=O)[C@@H](C)O)C(C)C)[C@@H](C)O)C(C)C)C(C)C | Staphylococcus epidermidis | broth microdilution | ATCC 1435 | 18 h, 37 °C | 3.1 µg/mL
CCCCCCCCCCCCCCCCCC(=O)N/N=C/c1ccccc1 | Aspergillus niger | microbial growth, broth dilution |  | 7 days | 63.1 µM
O=C(O)c1ccc(C(F)(F)F)cc1C(=O)c1ccc(Sc2ccc(Cl)c(Cl)c2)c([N+](=O)[O-])c1 | Staphylococcus epidermidis | microbial growth, broth dilution | ATCC12228 |  | 0.5 to 1 µg/mL
CC(C)[C@H](N)C(=O)N[C@@H](CS)C(=O)N1CCC[C@H]1C(=O)N[C@@H](Cc1c[nH]cn1)C(=O)N[C@@H](CCCNC(=N)N)C(=O)N[C@@H](CS)C(=O)O | Streptococcus pyogenes | broth microdilution | MTCC 442 | 37 °C | 45 µg/mL
CN[C@@H]1[C@H](O)[C@H](NC)[C@H]2O[C@@]3(O)C(=O)C[C@@H](C)O[C@H]3O[C@@H]2[C@H]1O | Mycobacteroides abscessus |  | ATCC 19977 whiB7 MAB_2355 deleted | 120 h | 32 to 64 µg/mL
Cc1ccc(C(=O)N/N=C/c2ccccc2Cl)cc1 | Aspergillus niger | microbial growth, broth dilution |  | 7 days | 24.5 µM
CN[C@H](CC(C)C)C(=O)N[C@H]1C(=O)N[C@@H](CC(N)=O)C(=O)N[C@H]2C(=O)N[C@H]3C(=O)N[C@H](C(=O)N[C@H](C(=O)O)c4cc(O)cc(O)c4-c4cc3ccc4O)[C@H](O)c3ccc(c(Cl)c3)Oc3cc2cc(c3O[C@@H]2O[C@H](CO)[C@@H](O)[C@H](O)[C@H]2O[C@H]2C[C@](C)(N)[C@H](O)[C@H](C)O2)Oc2ccc(cc2Cl)[C@H]1O | Enterococcus gallinarum |  | vancomycin-intermediate ATCC 49608 | 20 h | 8 to 16 µg/mL

A few entries again:
Substance | organism | assay | test system | conditions | MIC
CC[C@H](C)[C@H](NC(=O)CNC(=O)[C@H](CCCNC(=N)N)NC(=O)[C@H](Cc1ccccc1)NC(=O)[C@@H](NC(=O)[C@H](Cc1c[nH]cn1)NC(=O)[C@H](Cc1c[nH]cn1)NC(=O)[C@H](Cc1ccccc1)NC(=O)[C@@H](N)Cc1ccccc1)[C@@H](C)CC)C(=O)N[C@H](C(=O)N[C@@H](Cc1c[nH]cn1)C(=O)N[C@H](C(=O)NCC(=O)N[C@@H](CCCCN)C(=O)N[C@H](C(=O)N[C@@H](CCCCN)C(=O)N[C@@H](Cc1c[nH]cn1)C(=O)N[C@@H](CCCNC(=N)N)C(=O)N[C@@H](CC(C)C)C(=O)N[C@H](C(=O)N[C@H](C(=O)NCC(N)=O)[C@@H](C)O)C(C)C)[C@@H](C)O)C(C)C)C(C)C | Staphylococcus epidermidis | broth microdilution | ATCC 1435 | 18 h, 37 °C | 3.1 µg/mL
CCCCCCCCCCCCCCCCCC(=O)N/N=C/c1ccccc1 | Aspergillus niger | microbial growth, broth dilution |  | 7 days | 63.1 µM
O=C(O)c1ccc(C(F)(F)F)cc1C(=O)c1ccc(Sc2ccc(Cl)c(Cl)c2)c([N+](=O)[O-])c1 | Staphylococcus epidermidis | microbial growth, broth dilution | ATCC12228 |  | 0.5 to 1 µg/mL
